Measured values pooled from the literature.
Protocols differ between the studies behind these lines. Numbers after ± are the reported error.

`CC(C)(C)c1cc(-c2ccc3cc4ccccc4nc3n2)nc(-c2ccc3cc4ccccc4nc3n2)c1.Cc1ccncc1.[Cl-].[Cl-].[Ru+2].c1ccc2cc3nc4c5cccnc5c5ncccc5c4nc3cc2c1` gave an EC50 of 6.53 µM (A-375; photocytotoxicity, resazurin; visible light 400-700 nm, 20 mW, 100 J/cm2).
`CCN(C(=O)c1cc(F)ccc1Oc1nncnc1N1CCC2(C1)CN([C@H](CCCN(C)CCOC)C(C)C)C2)C(C)C` gave a GI50 of over 10 µM (ASPC1; cell growth or viability; 72 h).
`CC[n+]1cccc2cc(/C=N/NC(=O)c3cc(C(=O)N/N=C/c4ccc5c(ccc[n+]5CC)c4)ncn3)ccc21` gave a ΔTm of 1 ± 0.3 °C (hp2 hairpin duplex DNA; FRET melting; 1 µM, together with: ds26 10 µM).
The IC50 of `CC(C)c1ccc(N(C)c2ccc3c(c2)OCC[C@H]3CNc2cnccc2C(=O)O)cc1` is reported as 0.0102 µM (NCI-H508; cell growth or viability, ATP luminescence; 7 days).
The ΔTm of `C[n+]1cc(/C=N/NC(=O)c2cncc(C(=O)N/N=C/c3cc4ccccc4[n+](C)c3)n2)cc2ccccc21` is reported as 0.7 °C (hp2 hairpin duplex DNA; FRET melting; 1 µM, together with: ds26 10 µM).
For `CN1CCCNC(=O)c2cccc(c2)C(=O)NCCCN(C)CCCNc2cccc3c2C(=O)c2cccc(c2C3=O)NCCC1`, “log2 fold change” read -0.876 (SAS; RNA-Seq, item: TAPBP mRNA; 1 µM, 6 h; reference: untreated cells).
`CCN(CC)CC(=O)Nc1cccc(-n2cc(-c3ccc4ccc(-c5cn(-c6cccc(NC(=O)CN(CC)CC)c6)nn5)cc4c3)nn2)c1` gave a fold regulation of 1.51 (RCC4; PCR angiogenesis array, item: CCL2; 5 x IC50, 2 h, normoxia; reference: untreated).
For `Cc1ncsc1-c1ccc(C(C)NC(=O)C2CC(O)CN2C(=O)C(NC(=O)CCCCCCCCCCN2CCCC(Nc3ncc(Cl)c(Nc4ccccc4S(=O)(=O)C(C)C)n3)C2)C(C)(C)C)cc1` (centres unmarked), “log2 fold change” read -1.26 (22Rv1; RNA-seq, item: ORAI3 mRNA; concentration not given; reference: DMSO).
The inhibition of `Cc1cc(C)nc(SCC(=O)Nc2ncc(Cc3cccc4ccccc34)s2)n1` is reported as 27.4 ± 8.7% (PC-3M-luc; colony formation, colony forming; 1 µM).
`CNS(=O)(=O)Nc1nccc(Cc2c(C)c3ccc(Oc4ncccc4F)cc3oc2=O)c1F` gave an IC50 of 0.5 µM (HEC-1B; cell viability; 7 days).
`CC(C)(C)c1cc(-c2ccc3cccnc3n2)nc(-c2ccc3cccnc3n2)c1.[Cl-].[Cl-].[Ru+2].c1cnc2c(c1)ccc1cccnc12` has a phototoxicity index of 2 (A-375; resazurin; together with: light 523 nm, 100 J/cm2; reference: dark EC50 over light EC50).
The reporter activity of `C=C1C[C@]2(C(=O)OC)C=C(C(=O)Nc3cccc(C(=O)Nc4ccc(Nc5nccc(-c6cccnc6)n5)c(C)c4)c3)C(=O)[C@H]1C2` is reported as 0.121 (AP1 reporter HEK293; AP1 reporter gene, inhibitor; 10 µM, 6 h, compound kept in medium, unit not given, together with: PMA; reference: PMA alone).
For `Cn1ncc2cc(-c3cncc(Cl)c3N3CCC4(CCNC4=O)CC3)ccc21`, “fold change in expression” read -3.29 (LS174T; microarray, item: IL17C; concentration not given, 24 h, gene set IL-17C; reference: untreated cells).
With `Cc1ccncc1.[Cl-].[Cl-].[Ru+2].c1cc(-c2ccc3cccnc3n2)nc(-c2ccc3cccnc3n2)c1.c1ccc2cc3nc4c5cccnc5c5ncccc5c4nc3cc2c1` the EC50 was 1.48 µM (A-375; resazurin; together with: light 633 nm, 20 mW, 100 J/cm2).

Some of these lines once more:
`CC(C)(C)c1cc(-c2ccc3cc4ccccc4nc3n2)nc(-c2ccc3cc4ccccc4nc3n2)c1.Cc1ccncc1.[Cl-].[Cl-].[Ru+2].c1ccc2cc3nc4c5cccnc5c5ncccc5c4nc3cc2c1` gave an EC50 of 6.53 µM (A-375; photocytotoxicity, resazurin; visible light 400-700 nm, 20 mW, 100 J/cm2).
